Experimental data from different studies.
Parts stem from different laboratories: compare values within a part only. Positions count from the first letter of the parent shown.

Block 1
Target: CEP164, C-terminal peptide (human)
Technique: DHFR complementation, deep sequencing
Medium: yeast
Setting: single substitutions, model-inferred values
Reference: wild type
Reading: higher = weaker binding
Parent: PDZK1, PDZ domain 2 (human); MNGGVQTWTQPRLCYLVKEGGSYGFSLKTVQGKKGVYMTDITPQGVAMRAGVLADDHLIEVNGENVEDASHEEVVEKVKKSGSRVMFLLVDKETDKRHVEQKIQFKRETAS; partner HNRVKVYRF
Change	binding free energy change [kcal/mol]
R49V	0.279
M1E	-0.179
Q101W	-0.121
N62M	1.07
F87E	1.58
L88T	-0.144
D95C	-0.102
H71W	-0.773
V17Y	0.174
I41L	0.331
A110P	-0.0896
E60Q	0.103
V17K	-0.184
V78K	1.44
G24L	1.13
G21D	0.00755
L89A	1.52
L16S	1.54
Y37M	0.356
M38F	0.224
D68R	0.0751

Block 2
Target: CCNE2, cyclin fold, Cln2 fusion (human)
Technique: yeast growth competition, sequencing
Medium: yeast
Setting: weak parent motif
Reference: not given
Reading: higher = stronger binding
Parent: CENPC docking peptide (human); VKTKKRLNFDDKV
Change	normalised enrichment score
V13A	-0.505
K4A	0.59
K5A L7A	0.359
K5R	3.56
K2A	0.347
R6A	0.887
T3A	2.14
F9L	0.753
F9A	0.359
D11A	0.277

Block 3
Target: ABI1, truncated, D143A, DHFR fusion (Arabidopsis thaliana)
Technique: DHFR PCA, deep sequencing
Medium: yeast
Setting: methotrexate growth selection, single substitutions
With: (+)-ABA 58 µM
Reference: wild-type fitted maximum
Reading: higher = stronger binding
Parent: PYL1, truncated, DHFR fusion (Arabidopsis thaliana); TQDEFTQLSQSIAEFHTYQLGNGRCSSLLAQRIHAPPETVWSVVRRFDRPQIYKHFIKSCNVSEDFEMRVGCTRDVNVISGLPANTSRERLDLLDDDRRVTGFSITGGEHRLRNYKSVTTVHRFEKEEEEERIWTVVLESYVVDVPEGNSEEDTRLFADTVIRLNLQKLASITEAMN; partner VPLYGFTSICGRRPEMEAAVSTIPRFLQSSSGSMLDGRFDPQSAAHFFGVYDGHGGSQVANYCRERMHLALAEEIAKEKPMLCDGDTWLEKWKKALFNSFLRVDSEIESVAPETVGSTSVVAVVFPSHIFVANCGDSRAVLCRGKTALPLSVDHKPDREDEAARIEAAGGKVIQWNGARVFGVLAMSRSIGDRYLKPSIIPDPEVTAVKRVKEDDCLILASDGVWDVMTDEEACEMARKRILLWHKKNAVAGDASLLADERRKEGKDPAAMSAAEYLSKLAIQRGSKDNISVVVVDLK
Change	relative binding score [%]
L8H	51.9
T101R	-0.0194
N149P	-1
G102R	33.8
H34S	87.2
Q10N	92.2
G21Y	77.7
R163W	24.8
Y141I	1.38
F66H	73.1
S26V	64.1
R90K	80.6
V161E	1
L20G	92.1
R123V	75.3
V118H	85.6
S63W	49.8

Block 4
Target: RING finger protein unkempt homolog, zinc fingers 1-6, GST-SBP tag (UNK, Homo sapiens, UniProt Q9C0B0, residues 30-357)
Technique: RNA Bind-n-Seq
Form: RNA
Medium: in vitro
Concentration: not given
Setting: RNA with constant flanks, human and mouse sites, ends assumed
Reference: input RNA pool
Reading: higher = stronger binding
All sequences stand within: GGGAGUUCUACAGUCCGACGAUC … CAACAGAGGAUUGAGCAUCA
Residues (chain): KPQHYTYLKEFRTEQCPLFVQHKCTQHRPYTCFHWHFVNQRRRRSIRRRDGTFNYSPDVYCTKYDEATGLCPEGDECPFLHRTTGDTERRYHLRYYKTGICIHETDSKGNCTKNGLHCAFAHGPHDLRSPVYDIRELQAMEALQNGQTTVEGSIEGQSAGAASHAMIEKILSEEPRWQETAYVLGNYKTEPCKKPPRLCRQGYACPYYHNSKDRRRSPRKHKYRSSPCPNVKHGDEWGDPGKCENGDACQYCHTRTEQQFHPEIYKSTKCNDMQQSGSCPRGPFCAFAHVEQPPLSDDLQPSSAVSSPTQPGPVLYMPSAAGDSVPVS
Oligonucleotide	bound/input enrichment
GUGCAGACUGCCUCAAAACAAGUUGAUGGUGAUUAUGUUGUGUCUGAAUGGAGUGAAAUUAUAGAAUUCUGCACCGCAGACUAUUCAAAAGUUCAUCUAACACAAUUGUUGGAGAAGGCU	0.197 ratio
UUGGAUAUUUUUUCAGCAAAGUAUCAUUUAGAAAAAAUUUUCUUGAAACAAAGUCUAUAAAGUUCUAAGUCCUACCAUUGAGUGAAUUUGAUAUUAUGGCAGCAACUUACAGACUUGUGG	0.301 ratio
GAGCUUAAAGAGUUAGACCCCAAGUUGGCUCCCUGGAUCCAGAGACUGAAUAGUUUUGGCUUGGAUGCCAUAGGACCCUUUUUCACUCGGUACGGAGCAUCUCUCAAGGAGCUUGAUUUC	0.918 ratio
GGAAGAGUUGGGCUGUGGAAGGACAUCUUCACCGUCUCCAUGAACGAGAAGUUUGAUCUAGUGUACAAACAGAAGAUGGGGAAGUGUGACCUCACGUUUGACUUUUAUCUAUAAUACCAG	0.202 ratio
UUUGUUACCUAACCAACCUUCACUGAAAGGCAAAUUUAGUUCAGGAGGUUAGUUUUUAGCUAGCUUUGGAAGUAAGCCUUUAUUUAUUACUUUUUGGAGGAAAUCAGAGAAGUGUCAAUG	0.279 ratio
CAUCGAAUUGGAAGAACUGCUCGCAGUACCAAAACAGGCACAGCAUACACUUUCUUUACACCUAAUAACAUAAAGCAAGUGAGCGACCUUAUCUCUGUGCUUCGUGAAGCUAAUCAAGCA	0.0837 ratio
AGCCCGCGGGCGCCUCAGGUAGAAGAAGAAAGGUGCCACUCCGGCAUGAAGACAGACUCGCUUAGUCGCCAGUCACUUAAGCUGAGUGCAUUGUGAUUUCCAAUAAUUGAGGCAGUGGUU	0.117 ratio
CCGGUGGUGAAGACUGAGUUCCAGUUGCUCUACGUGUACCAUCUUGUGGGGCCAUUUCUACAGAGGUUCCAACAGGAGAGAACCCGGUGCAUGAUUGAGAUUGGCGUGGCAUUUUAUGAC	0.122 ratio
UCAACUCUAGCCAAGGAGGCAGAAAGGAAUUCUUAUCGCCUAAGCUGGGGCACUGAGAACUUAGACAACGUGGCUCUUUCUUCUAGUCCUAUUCAUUCAGGUUUCCUGGUUAGUUUUAUG	10.1 ratio
UUCUCCAGCUGCUUUUGCUAUAAGCAUUAUUGUAAGAGUAUCUCAAGCAGGGGUCGUUACAACCGUGAUUUGGAACAGGAUGAAGCAUUUAUUCCAGUAGGAGAAUCAUUGAAAGACCUG	0.186 ratio
UCCAGCCCCCACUUCCUCCUGGGCUCCAGUGUCCAGCCAGGGCCAGGGAAGGGAGCCACAGAGUUAACGUUUUUCUAACCUUGCUACUUGGAGGGAAGGGAAGGUUGGGGGAGAGGCCUG	0.136 ratio

Block 5
Target: Prothrombin, mature alpha-thrombin (F2, Homo sapiens, UniProt P00734)
Technique: aptamer microarray, sandwich
Form: DNA with 2'F-ANA
Medium: in vitro
Concentration: 200 nM
Setting: whole 15-mer aptamer, many near background
With: Cy3 exosite-II aptamer, 400 nM
Reading: higher = stronger binding
Oligonucleotide: GGTTGGTGTGGTTGG
Modification	mean fluorescence intensity [a.u.]
2'F-ANA at 4 8 9 10	86.4
2'F-ANA at 1 2 3 4 7 8 10 11 12 14 15	50.2
2'F-ANA at 1 5 7 11 14 15	70.2
2'F-ANA at 1 2 3 6 8 9 10 13 15	57.9
2'F-ANA at 1 2 4 5 6 8 9 11 15	76.3
2'F-ANA at 1 2 3 5 6 7 8 9 11 12 14 15	50.8
2'F-ANA at 1 3 5 6 8 12 14	86
2'F-ANA at 2 10 11 12 15	167
2'F-ANA at 4 5 6 8 9 10 11 12 14 15	47.4
2'F-ANA at 4 6 7 9 12 13 14	99
2'F-ANA at 3 4 10 11 12 14	231
2'F-ANA at 2 3 8 9 10 11 12 14 15	250
2'F-ANA at 3 4 6 8 9 11 13 14 15	278
2'F-ANA at 1 5 7 9 10 12 15	201
2'F-ANA at 5 8 11 15	62.6
2'F-ANA at 1 3 4 5 8 10 12 13 14	53.6
2'F-ANA at 1 2 3 5 7 8 14	47.4
2'F-ANA at 2 3 4 5 6 11	77.3
2'F-ANA at 3 4 6 7 8 9 12 13 14	267

For quick reference, copied from above (block 5):
Modification	mean fluorescence intensity [a.u.]
2'F-ANA at 1 3 5 6 8 12 14	86
2'F-ANA at 2 10 11 12 15	167
2'F-ANA at 4 5 6 8 9 10 11 12 14 15	47.4
2'F-ANA at 4 6 7 9 12 13 14	99
2'F-ANA at 3 4 10 11 12 14	231
2'F-ANA at 2 3 8 9 10 11 12 14 15	250
2'F-ANA at 3 4 6 8 9 11 13 14 15	278
2'F-ANA at 1 5 7 9 10 12 15	201
2'F-ANA at 5 8 11 15	62.6
2'F-ANA at 1 3 4 5 8 10 12 13 14	53.6
2'F-ANA at 1 2 3 5 7 8 14	47.4
